Measured values from different studies.
Numbered parts are unrelated; each lists some results of a single study.

Sample 1
Target: Sal-like protein 4, full length isoform B (SALL4, Homo sapiens, UniProt Q9UJQ4-2, residues 1-616)
Technique: universal PBM
Form: double-stranded DNA, one strand shown
Sample: in vitro
Concentration: not given
Setting: 8-mer, flanks averaged, mean of replicates
Reading: higher = stronger binding
Residues (chain): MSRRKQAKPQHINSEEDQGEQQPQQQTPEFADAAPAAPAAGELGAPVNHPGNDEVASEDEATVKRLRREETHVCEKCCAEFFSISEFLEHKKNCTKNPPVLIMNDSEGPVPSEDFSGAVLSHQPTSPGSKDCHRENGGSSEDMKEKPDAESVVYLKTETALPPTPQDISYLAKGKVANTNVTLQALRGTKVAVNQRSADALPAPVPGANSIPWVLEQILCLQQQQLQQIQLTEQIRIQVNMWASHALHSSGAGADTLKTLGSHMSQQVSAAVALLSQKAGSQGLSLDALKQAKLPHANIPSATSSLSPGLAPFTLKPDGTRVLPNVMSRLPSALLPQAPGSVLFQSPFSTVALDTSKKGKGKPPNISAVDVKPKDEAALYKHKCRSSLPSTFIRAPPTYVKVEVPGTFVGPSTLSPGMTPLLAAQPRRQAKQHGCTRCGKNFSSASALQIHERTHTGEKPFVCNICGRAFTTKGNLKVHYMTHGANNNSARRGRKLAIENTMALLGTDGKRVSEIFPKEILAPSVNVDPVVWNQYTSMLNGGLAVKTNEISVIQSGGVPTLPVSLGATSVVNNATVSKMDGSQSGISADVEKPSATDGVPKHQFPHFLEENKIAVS
The E-score of `GGACTTAA` is reported as -0.0462.
For `AACAGCCG`, the E-score was -0.144.
With `AACTAGTA` the E-score was 0.131.
`TCTTGCAA` gave an E-score of 0.058.
`AAGCGCAT` gave an E-score of -0.0183.
`ACAGGGCG` gave an E-score of -0.192.

Sample 2
Target: RNA binding protein fox-1 homolog 2, RRM domain, GST-SBP tag (RBFOX2, Homo sapiens, UniProt O43251-10, residues 100-194)
Technique: RNA Bind-n-Seq
Form: RNA
Sample: in vitro
Concentration: 365 nM
Setting: natural RNA segment, single round, ends assumed
Reference: no-protein control
Reading: higher = stronger binding
Target sequence (chain): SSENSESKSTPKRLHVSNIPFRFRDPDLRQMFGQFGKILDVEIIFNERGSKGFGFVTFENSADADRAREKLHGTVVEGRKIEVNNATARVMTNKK
Under “RBNS enrichment (R)”, `GGGAGUUCUACAGUCCGACGAUCUGUAUCGUCUCCUUCUCCCUAAAGUGUACUUAAUCUUUGCUUUCUUUGCACAAUGUCUUUGGUUGCAAGUCAUAAGCCUGAGGCAAAUAAAAUUCCAGUAAUUUCGAAGAUGGAAUUCUCGGGUGCCAA` is recorded as 1.45.
For `GGGAGUUCUACAGUCCGACGAUCAACUGAAAUCUGAAGCUUUUUAUCGCUUAUUUUUCCUCGCCCUGUCUCCUCCCUUCCACCUUUCUCCUUGCAUUGUGAUGAUCUAGUAGGCACGUCUGUCAACAGGACACUGGAAUUCUCGGGUGCCAA`, “RBNS enrichment (R)” read 1.62.
Under “RBNS enrichment (R)”, `GGGAGUUCUACAGUCCGACGAUCGGGAUCUUGCUCACAAGAAUCACUUUUAAGAUCUUUUAGGGCUGUUAAUUUUAUUUUUCUCAGUGUUCUGGACACUGUAGACCUGUGCAGUACUCCCACAGGCCUGACUAUGGAAUUCUCGGGUGCCAA` is recorded as 0.357.

Sample 3
Target: Prothrombin, mature alpha-thrombin (F2, Homo sapiens, UniProt P00734)
Technique: aptamer microarray, sandwich
Form: DNA with 2'F-ANA
Sample: in vitro
Concentration: 200 nM
Setting: whole 15-mer aptamer, many near background
Added: Cy3 exosite-II aptamer, 400 nM
Reading: higher = stronger binding
Strand: GGTTGGTGTGGTTGG
For `2'F-ANA at 1 2 4 11 12`, “mean fluorescence intensity” read 231 a.u.
`2'F-ANA at 2 3 10` — result for “mean fluorescence intensity”: 466 a.u.
`2'F-ANA at 1 3 4 12 14 15` — result for “mean fluorescence intensity”: 93.1 a.u.
`2'F-ANA at 1 2 5 7 9 10 11`: “mean fluorescence intensity” 51.3 a.u.
`2'F-ANA at 1 8 11 13 15` — result for “mean fluorescence intensity”: 194 a.u.

Further values, each from its own experiment
`PhoQ, residues 284 288 289 292 302 303 SSYNSA` gave a fold induction of 1.78 (PhoP, residues 12 14 15 18 19 LQHIR (Escherichia coli, UniProt P23836); Sort-seq, measured: YFP reporter; E. coli; PhoQ-PhoP variant library, added: 10 µM Mg2+; reference: high Mg2+ state, higher = stronger signaling).

Excerpt of the above (further values, each from its own experiment):
`PhoQ, residues 284 288 289 292 302 303 SSYNSA` gave a fold induction of 1.78 (PhoP, residues 12 14 15 18 19 LQHIR (Escherichia coli, UniProt P23836); Sort-seq, measured: YFP reporter; E. coli; PhoQ-PhoP variant library, added: 10 µM Mg2+; reference: high Mg2+ state, higher = stronger signaling).
